Experimental data of several laboratories.
“And” joins repeats or separate records; there may be more than shown. Numbers after ± are the reported error.
HSP90AB1: Heat shock protein HSP 90-beta (HSP90AB1, Homo sapiens, UniProt P08238)
Sequence of UniProt P08238 (whole entry, looked up): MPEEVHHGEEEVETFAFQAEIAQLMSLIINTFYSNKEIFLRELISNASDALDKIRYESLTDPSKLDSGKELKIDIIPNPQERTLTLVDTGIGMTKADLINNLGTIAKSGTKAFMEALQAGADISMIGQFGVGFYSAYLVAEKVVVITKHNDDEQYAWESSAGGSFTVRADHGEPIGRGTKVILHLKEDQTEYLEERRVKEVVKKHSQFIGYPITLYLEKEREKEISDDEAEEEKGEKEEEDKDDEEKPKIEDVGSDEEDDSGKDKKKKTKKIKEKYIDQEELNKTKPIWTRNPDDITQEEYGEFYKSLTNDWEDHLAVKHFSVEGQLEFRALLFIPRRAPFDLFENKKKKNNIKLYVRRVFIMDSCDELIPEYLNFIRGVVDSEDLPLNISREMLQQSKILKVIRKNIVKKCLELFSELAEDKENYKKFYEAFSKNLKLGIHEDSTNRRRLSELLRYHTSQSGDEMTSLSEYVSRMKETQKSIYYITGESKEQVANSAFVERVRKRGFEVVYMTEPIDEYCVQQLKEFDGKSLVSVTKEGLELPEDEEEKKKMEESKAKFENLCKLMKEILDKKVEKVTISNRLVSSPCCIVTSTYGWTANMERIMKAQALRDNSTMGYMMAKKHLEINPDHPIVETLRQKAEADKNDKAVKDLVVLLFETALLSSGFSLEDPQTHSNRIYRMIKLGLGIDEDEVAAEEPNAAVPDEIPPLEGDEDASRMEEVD
TNIK: TRAF2 and NCK-interacting protein kinase (TNIK, Homo sapiens, UniProt Q9UKE5)
Sequence of UniProt Q9UKE5 (whole entry, looked up): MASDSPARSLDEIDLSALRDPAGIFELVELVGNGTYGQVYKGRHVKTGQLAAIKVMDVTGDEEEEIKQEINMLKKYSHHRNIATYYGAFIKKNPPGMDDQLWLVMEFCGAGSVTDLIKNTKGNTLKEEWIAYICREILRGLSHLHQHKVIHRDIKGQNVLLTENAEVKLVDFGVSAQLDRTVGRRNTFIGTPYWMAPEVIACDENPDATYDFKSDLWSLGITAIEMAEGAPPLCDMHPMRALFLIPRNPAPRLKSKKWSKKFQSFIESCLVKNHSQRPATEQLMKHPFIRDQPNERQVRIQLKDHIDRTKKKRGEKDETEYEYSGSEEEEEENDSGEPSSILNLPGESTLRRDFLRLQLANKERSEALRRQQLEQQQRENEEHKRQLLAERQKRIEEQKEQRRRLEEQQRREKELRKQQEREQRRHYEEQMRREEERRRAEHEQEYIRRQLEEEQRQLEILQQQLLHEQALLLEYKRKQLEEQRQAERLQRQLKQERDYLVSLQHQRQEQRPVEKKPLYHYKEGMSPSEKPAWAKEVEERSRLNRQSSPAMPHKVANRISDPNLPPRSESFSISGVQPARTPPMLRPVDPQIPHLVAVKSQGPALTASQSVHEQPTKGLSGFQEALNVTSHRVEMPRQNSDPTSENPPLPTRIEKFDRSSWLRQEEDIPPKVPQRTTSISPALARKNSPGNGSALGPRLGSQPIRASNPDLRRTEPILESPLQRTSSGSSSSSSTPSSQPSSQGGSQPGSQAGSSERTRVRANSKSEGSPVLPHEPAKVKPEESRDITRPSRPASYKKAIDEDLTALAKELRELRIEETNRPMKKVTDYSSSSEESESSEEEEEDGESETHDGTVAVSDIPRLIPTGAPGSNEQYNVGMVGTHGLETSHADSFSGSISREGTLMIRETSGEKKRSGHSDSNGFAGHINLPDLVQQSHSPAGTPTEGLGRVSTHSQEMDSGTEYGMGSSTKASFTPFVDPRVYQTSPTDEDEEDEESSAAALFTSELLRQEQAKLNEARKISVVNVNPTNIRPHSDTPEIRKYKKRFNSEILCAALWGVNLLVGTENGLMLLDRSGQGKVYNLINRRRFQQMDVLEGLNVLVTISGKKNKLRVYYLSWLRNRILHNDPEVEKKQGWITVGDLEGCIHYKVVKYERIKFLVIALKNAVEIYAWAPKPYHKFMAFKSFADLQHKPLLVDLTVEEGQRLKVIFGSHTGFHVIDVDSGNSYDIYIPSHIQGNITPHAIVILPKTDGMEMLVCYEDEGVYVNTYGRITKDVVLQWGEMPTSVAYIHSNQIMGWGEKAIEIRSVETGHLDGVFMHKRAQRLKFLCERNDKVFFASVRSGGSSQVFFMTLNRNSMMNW
Sequence of UniProt Q9NNX6 (whole entry, looked up): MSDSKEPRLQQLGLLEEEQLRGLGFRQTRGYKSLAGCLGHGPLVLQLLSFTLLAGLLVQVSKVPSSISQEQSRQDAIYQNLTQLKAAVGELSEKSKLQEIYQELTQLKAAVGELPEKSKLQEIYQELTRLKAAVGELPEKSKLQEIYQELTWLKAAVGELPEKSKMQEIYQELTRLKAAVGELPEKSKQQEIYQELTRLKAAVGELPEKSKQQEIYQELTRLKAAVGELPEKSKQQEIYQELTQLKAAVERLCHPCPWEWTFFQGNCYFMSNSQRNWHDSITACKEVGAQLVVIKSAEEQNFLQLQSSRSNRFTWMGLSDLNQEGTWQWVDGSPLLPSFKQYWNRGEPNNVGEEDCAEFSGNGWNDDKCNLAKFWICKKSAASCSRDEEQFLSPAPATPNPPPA
Sequence of UniProt P33913 (whole entry, unmodified, looked up): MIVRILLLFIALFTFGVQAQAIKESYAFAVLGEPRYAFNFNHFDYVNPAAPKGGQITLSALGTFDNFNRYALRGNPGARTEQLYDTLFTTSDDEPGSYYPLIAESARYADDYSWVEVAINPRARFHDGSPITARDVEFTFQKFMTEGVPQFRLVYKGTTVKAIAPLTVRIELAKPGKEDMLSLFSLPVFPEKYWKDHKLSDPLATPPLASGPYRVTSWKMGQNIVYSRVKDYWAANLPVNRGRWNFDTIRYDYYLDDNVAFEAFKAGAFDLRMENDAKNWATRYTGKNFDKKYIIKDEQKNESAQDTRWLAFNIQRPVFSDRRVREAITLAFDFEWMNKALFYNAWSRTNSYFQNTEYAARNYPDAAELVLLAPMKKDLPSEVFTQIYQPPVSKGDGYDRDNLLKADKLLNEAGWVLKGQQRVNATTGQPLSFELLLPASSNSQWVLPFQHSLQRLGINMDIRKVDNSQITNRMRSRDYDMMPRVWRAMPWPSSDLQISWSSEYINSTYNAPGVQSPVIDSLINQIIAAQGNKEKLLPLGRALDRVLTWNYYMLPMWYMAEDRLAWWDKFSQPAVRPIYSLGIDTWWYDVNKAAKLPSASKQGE
Sequence of UniProt P09211 (whole entry, looked up): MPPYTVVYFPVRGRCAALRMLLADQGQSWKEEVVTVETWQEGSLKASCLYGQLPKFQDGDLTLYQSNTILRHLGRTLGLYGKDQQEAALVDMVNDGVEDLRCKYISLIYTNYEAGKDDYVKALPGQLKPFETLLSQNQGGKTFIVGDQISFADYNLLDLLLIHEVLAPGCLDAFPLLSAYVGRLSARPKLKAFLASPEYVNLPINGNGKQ
Sequence of UniProt P20273 (whole entry, looked up): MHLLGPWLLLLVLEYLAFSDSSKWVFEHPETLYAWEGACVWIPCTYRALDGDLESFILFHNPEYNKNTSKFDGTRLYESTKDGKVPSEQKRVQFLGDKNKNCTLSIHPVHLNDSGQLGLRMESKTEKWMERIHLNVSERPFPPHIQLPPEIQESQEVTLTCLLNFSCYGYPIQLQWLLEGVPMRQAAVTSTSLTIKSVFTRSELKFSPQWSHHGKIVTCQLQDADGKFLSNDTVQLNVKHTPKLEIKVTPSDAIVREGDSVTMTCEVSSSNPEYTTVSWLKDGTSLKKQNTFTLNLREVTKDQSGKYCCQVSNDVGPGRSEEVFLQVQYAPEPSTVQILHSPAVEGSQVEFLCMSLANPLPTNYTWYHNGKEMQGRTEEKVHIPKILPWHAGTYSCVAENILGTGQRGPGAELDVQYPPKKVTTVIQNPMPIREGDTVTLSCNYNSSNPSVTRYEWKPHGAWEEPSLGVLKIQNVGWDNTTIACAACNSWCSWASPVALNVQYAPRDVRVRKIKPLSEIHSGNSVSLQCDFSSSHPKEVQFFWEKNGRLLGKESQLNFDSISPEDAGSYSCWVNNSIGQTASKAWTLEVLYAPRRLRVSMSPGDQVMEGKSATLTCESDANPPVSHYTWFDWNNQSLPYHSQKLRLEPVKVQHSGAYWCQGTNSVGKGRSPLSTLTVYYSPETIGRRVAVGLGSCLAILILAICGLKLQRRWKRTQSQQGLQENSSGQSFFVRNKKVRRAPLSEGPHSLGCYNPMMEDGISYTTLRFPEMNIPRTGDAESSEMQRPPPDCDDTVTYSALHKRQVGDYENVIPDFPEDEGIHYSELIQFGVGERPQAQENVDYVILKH
Sequence of UniProt Q15046 (whole entry, looked up): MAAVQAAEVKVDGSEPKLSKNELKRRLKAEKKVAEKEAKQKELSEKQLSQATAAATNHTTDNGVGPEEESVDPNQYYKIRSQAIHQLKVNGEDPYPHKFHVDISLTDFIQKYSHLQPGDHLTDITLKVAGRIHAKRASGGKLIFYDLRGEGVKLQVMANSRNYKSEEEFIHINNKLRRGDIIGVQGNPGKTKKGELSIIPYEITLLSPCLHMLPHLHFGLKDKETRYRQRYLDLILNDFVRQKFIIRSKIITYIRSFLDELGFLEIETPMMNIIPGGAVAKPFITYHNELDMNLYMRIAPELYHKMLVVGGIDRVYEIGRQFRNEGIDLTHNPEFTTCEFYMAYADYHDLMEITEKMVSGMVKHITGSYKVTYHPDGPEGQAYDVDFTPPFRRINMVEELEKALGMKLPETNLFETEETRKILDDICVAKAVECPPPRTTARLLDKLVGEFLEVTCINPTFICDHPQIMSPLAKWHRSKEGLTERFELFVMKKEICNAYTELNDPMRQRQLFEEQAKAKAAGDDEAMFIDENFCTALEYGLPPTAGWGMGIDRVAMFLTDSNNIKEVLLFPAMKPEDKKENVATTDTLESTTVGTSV
Sequence of UniProt P31946 (whole entry, looked up): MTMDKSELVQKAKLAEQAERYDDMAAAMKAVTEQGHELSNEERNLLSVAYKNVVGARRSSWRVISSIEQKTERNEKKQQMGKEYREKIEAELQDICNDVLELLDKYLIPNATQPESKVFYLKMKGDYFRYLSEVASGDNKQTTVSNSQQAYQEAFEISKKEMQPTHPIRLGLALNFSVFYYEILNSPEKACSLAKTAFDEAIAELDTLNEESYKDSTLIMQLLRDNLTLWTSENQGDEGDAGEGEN

With `CSCC[C@H](NC=O)C(=O)N[C@@H](CCCNC(=N)N)C(=O)N[C@H](C(=O)NCC(=O)N[C@@H](CC(N)=O)C(=O)N[C@@H](C)C(=O)N[C@@H](CC(N)=O)C(=O)NCC(=O)NCC(=O)N[C@@H](CCCCNC(=S)Nc1ccc2c(c1)C(=O)OC21c2ccc(O)cc2Oc2cc(O)ccc21)C(=O)O)[C@@H](C)O` the Kd was 4.78 ± 0.33 µM (Uncharacterized protein YejA (yejA, Escherichia coli, UniProt P33913, T471A); binding, fluorescence polarisation; YejA variant T453A).
`CCCc1cc2cc(-n3nc(C(F)F)c4c3CC(C)(C)CC4=O)cc(N3CCC(O)CC3)c2c(=O)[nH]1` gave a Kd of 0.118 µM (HSP90AB1; fluorescence polarization; 24 h, 4 °C, together with: FITC-geldanamycin tracer).
With `CC[C@H](C)[C@H](NC(=O)[C@H](CCC(=O)O)NC(=O)[C@H](C)NC(=O)[C@H](CCCCN)NC(=O)[C@H](CC(C)C)NC(=O)[C@@H](NC(=O)[C@H](CCC(=O)O)NC(=O)[C@@H](NC(=O)[C@H](CCC(=O)O)NC(=O)[C@H](CC(=O)O)NC(=O)[C@H](C)NC(C)=O)[C@@H](C)O)C(C)C)C(=O)N[C@H]1CSCc2cccc(c2)CSC[C@@H](C(=O)N[C@@H](CCC(N)=O)C(=O)N[C@H](C(=O)N[C@@H](CCC(N)=O)C(=O)N[C@@H](CCC(=O)O)C(=O)NCCC(=O)N[C@@H](CCCCNC(=O)CCCC[C@@H]2SC[C@@H]3NC(=O)N[C@@H]32)C(N)=O)C(C)C)NC(=O)[C@H](C(C)C)NC(=O)[C@H](C)NC(=O)[C@H](CCCCN)NC1=O` the Kd was 6.01 µM (MYC (Homo sapiens, UniProt P01106); binding, BLI).
`C=C1NC(=O)CNC(=O)[C@H](CC(N)=O)NC(=O)[C@H](CC(C)C)NC(=O)CNC(=O)[C@H](CCCCN)NC(=O)[C@H](C)NC(=O)[C@H]([C@@H](C)CC)NC(=O)[C@H](CO)NC(=O)[C@H](Cc2c[nH]c3ccccc23)NC(=O)[C@H](C)NC(=O)[C@H](Cc2c[nH]c3ccccc23)NC(=O)c2ccc(-c3nc(C(=O)OC)cs3)nc2-c2csc1n2` gave a Kd of 0.0063 ± 0.0001 µM (TNIK; SPR; together with: ATP 1 mM).
For `NCc1cn([C@@H]2[C@@H](OCCn3cc(-c4cc(OCCOCCO)c(C#Cc5cc(OCCOCCO)c(C#Cc6cc(OCCOCCO)c(-c7cn(CCO[C@H]8O[C@H](CO)[C@@H](O)[C@H](O)[C@@H]8n8cc(CN)nn8)nn7)cc6OCCOCCO)cc5OCCOCCO)cc4OCCOCCO)nn3)O[C@H](CO)[C@@H](O)[C@@H]2O)nn1`, the Kd was 28.8 µM and 38.5 µM (CD209 antigen (CD209, Homo sapiens, UniProt Q9NNX6)).
The Kd of `CC(C)[C@@H]1NC(=O)[C@H](Cc2ccccc2)NC(=O)CSC[C@@H](C(N)=O)NC(=O)[C@H](CCC(=O)O)NC(=O)[C@H](CO)NC(=O)[C@H](Cc2c[nH]c3ccccc23)NC(=O)[C@H](C(C)C)NC(=O)[C@H](C(C)C)NC(=O)[C@H](Cc2ccc(O)cc2)NC(=O)[C@H](CC(=O)O)NC(=O)[C@H](Cc2c[nH]c3ccccc23)NC(=O)[C@H](Cc2ccc(O)cc2)NC(=O)[C@H](Cc2c[nH]c3ccccc23)NC(=O)[C@H](CCC(=O)O)NC1=O` is reported as 1.11 ± 0.086 µM (Interleukin-1 receptor-like 2, D1-D2 domains (IL1RL2, Homo sapiens, UniProt Q9HB29); SPR; IL-36R domains D1-D2).
`CSCC[C@H](NC(=O)[C@H](Cc1c[nH]cn1)NC(=O)[C@H](C)NC(=O)[C@H](Cc1ccc(OP(=O)(O)O)cc1)NC(=O)[C@@H]1CCCN1C(=O)[C@H](CCC(N)=O)NC(=O)[C@H](CCCNC(=N)N)NC(=O)[C@H](CCC(=O)O)NC(=O)[C@H](CC(=O)O)NC(=O)[C@H](Cc1ccccc1)NC(=O)[C@H](CO)NC(=O)[C@H](C)NC(=O)[C@H](CCCNC(=N)N)NC(=O)c1ccc2c(c1)C(=O)OC21c2ccc(N(C)C)cc2Oc2cc(N(C)C)ccc21)C(=O)N[C@@H](CC(N)=O)C(=O)NCC(=O)NCC(=O)N[C@@H](CCCNC(=N)N)C(=O)N[C@@H](CC(=O)O)C(=O)O` has a Kd of 1.36 µM (Tyrosine-protein kinase ABL2, SH2 domain (ABL2, Homo sapiens, UniProt P42684); binding).
`C=C(CC)C(=O)c1ccc(OCC(=O)NCCNC(=O)CCN2C=C/C(=C\c3sc4ccccc4[n+]3CCC(=O)NCCNC(=O)COc3ccc(C(=O)C(=C)CC)c(Cl)c3Cl)c3ccccc32)c(Cl)c1Cl` gave a Kd of 0.029 ± 0.00521 µM (GSTP1 (Homo sapiens, UniProt P09211); fluorescence titration; 30 min, pH 6.5).
The Kd of `C(#C[P+](c1ccccc1)(c1ccccc1)c1ccccc1)c1ccccc1` is reported as ~41 µM (dnaK, substrate-binding domain (Escherichia coli, UniProt P0A6Y8); ITC; 42 °C, fragment residues 393-507).
`CC[C@H](C)[C@H](NC(=O)[C@H](CCC(=O)O)NC(=O)[C@H](CCCNC(=N)N)NC(=O)[C@H](C)NC(=O)[C@H](C)NC(=O)[C@H](CCC(N)=O)NC(=O)[C@H](CCC(=O)O)NC(=O)[C@H](CCC(=O)O)NC(C)=O)C(=O)NCC(=O)N[C@@H](C)C(=O)N[C@@H](CCC(N)=O)C(=O)N[C@@H](CC(C)C)C(=O)N[C@@H](CCCNC(=N)N)C(=O)N[C@@H](CCCNC(=N)N)C(=O)N[C@@H](CCSC)C(=O)N[C@@H](C)C(=O)N[C@@H](CC(=O)O)C(=O)N[C@@H](CC(=O)O)C(=O)N[C@@H](CC(C)C)C(=O)N[C@@H](CC(N)=O)C(=O)N[C@@H](C)C(=O)N[C@@H](CCC(N)=O)C(=O)N[C@@H](Cc1ccc(O)cc1)C(=O)N[C@@H](CCC(=O)O)C(=O)N[C@@H](CCCNC(=N)N)C(N)=O` gave a Kd of 0.003 ± 0.001 µM (Bcl-2-like protein 1, C-terminal truncated (BCL2L1, Homo sapiens, UniProt Q07817); binding, ITC; pH 7.4, 25 °C).
Under Kd, `CC[C@H](C)[C@H](NC(=O)[C@@H]1CCCN1C(=O)[C@@H](NC(=O)[C@H](C)N)C(C)C)C(=O)N[C@@H](C)C(=O)N[C@@H](CCC(N)=O)C(=O)N[C@@H](CCCCN)C(=O)N[C@@H](CO)C(=O)N[C@@H](CCC(=O)O)C(=O)N1CCC[C@H]1C(=O)N[C@@H](Cc1ccccc1)C(=O)N[C@@H](CCCCN)C(=O)N[C@@H](CCCCN)C(=O)N[C@@H](CCCCN)C(=O)N[C@@H](CCCCNC(=O)CCCCCNC(=S)Nc1ccc2c(c1)C(=O)OC21c2ccc(O)cc2Oc2cc(O)ccc21)C(N)=O` is recorded as “no binding” (E3 ubiquitin-protein ligase XIAP, BIR1 domain (XIAP, Homo sapiens, UniProt P98170); fluorescence polarization; 30 min, pH 7.5, together with: 20 nM FITC-labeled peptide).
`CCCc1cc2cc(-n3nc(CC)c4c3CC3(CCC3)CC4=O)cc(N3CCC(O)CC3)c2c(=O)[nH]1` gave a Kd of 3.57 µM (HSP90AB1; fluorescence polarization; 24 h, 4 °C, together with: FITC-geldanamycin tracer).
`Cc1ncc([N+](=O)[O-])n1CC(O)Cn1cc(CO[C@]2(C(=O)O)C[C@H](O)[C@@H](NC(=O)CF)[C@H]([C@H](O)[C@H](O)CNC(=O)c3ccc(Oc4ccccc4)cc3)O2)nn1` (stereo partly shown) gave a Kd of 2.22 µM (CD22 (Homo sapiens, UniProt P20273); binding, ITC).
`O=C(N[C@@H]1c2ccccc2C[C@H]1N1CCCC1)c1ccc(-c2ccnc3[nH]ccc23)nc1` gave a Kd of 3 µM (STK33 (Homo sapiens, UniProt Q9BYT3); binding, competition with immobilised ligand).
With `O=C1NC2(CC2)COc2ncc(F)cc2[C@H]2COCCN2c2ccn3ncc1c3n2` the potassium was 3.93 ± 0.32 mmol/L (Sprague-Dawley rat, female, serum; oral, 5 mg/kg/day, 4 weeks daily, end of treatment).
`C=C(c1ccccc1)[C@H](N)P(=O)(O)O` has a Kd of 19 µM (PAL1 (Petroselinum crispum, UniProt P24481, Y110F); ITC).
With `CCCc1cc2cc(-n3nc(C4CCC4)c4c3CC(C)(C)CC4=O)cc(N3CCC(O)CC3)c2c(=O)[nH]1` the Kd was 2.8 µM (HSP90AB1; fluorescence polarization; 24 h, 4 °C, together with: FITC-geldanamycin tracer).
`CC[C@H](C)[C@@H]1NC(=O)[C@@H](Cc2ccccc2)NC(=O)[C@@H](Cc2ccccc2)NC(=O)[C@@H](C)NC(=O)[C@H](CCC(=O)N[C@@H](CCCCN)C(N)=O)NC(=O)[C@@H](C)NC(=O)[C@@H](C)NC(=O)[C@@H](C)NC(=O)[C@H](Cc2c[nH]c3ccccc23)NC(=O)[C@H](CCCNC(=N)N)NC1=O` gave a Kd of 1.5 µM (Lysine--tRNA ligase (KARS1, Homo sapiens, UniProt Q15046); binding).
`CC(C)C[C@H](NC(=O)[C@@H](N)Cc1ccccc1)C(=O)N[C@@H](C)C(=O)N[C@H]1CSCc2cccc(n2)CSC[C@@H](C(=O)N[C@H](C(=O)NCC(=O)N[C@@H](CO)C(=O)N[C@@H](Cc2c[nH]c3ccccc23)C(=O)N[C@@H](CCCCNC(=O)CN2CCN(CC(=O)O)CCN(CC(=O)O)CCN(CC(=O)O)CC2)C(N)=O)[C@@H](C)O)NC(=O)[C@H](Cc2c[nH]cn2)NC(=O)[C@H]([C@@H](C)O)NC(=O)[C@H](CCC(=O)O)NC(=O)[C@@H]2CCCN2C1=O` has a Kd of 0.116 µM (EPHA2 (Homo sapiens, UniProt P29317); binding, SPR).
`CC[C@H](C)[C@H](NC(=O)[C@H](CO)NC(=O)[C@H](CC(N)=O)NC(C)=O)C(=O)N[C@@H](CCCNC(=N)N)C(=O)N[C@@H](CCCCN)C(=O)N[C@@H](Cc1ccccc1)C(=O)N[C@@H](COP(=O)(O)O)C(=O)N[C@H](C(=O)N[C@H](C(=O)N[C@@H](CCC(N)=O)C(=O)N[C@@H](CCCCN)C(=O)N[C@H](C(=O)N1CCC[C@H]1C(=O)NCC(=O)NCC(=O)NCC(=O)NCC(=O)NCC(=O)N[C@@H](CCC(N)=O)C(=O)N[C@@H](C)C(=O)N[C@@H](CCCNC(=N)N)C(=O)N[C@@H](CCCNC(=N)N)C(=O)N[C@@H](CCCNC(=N)N)C(=O)N[C@@H](CCC(N)=O)C(=O)N[C@@H](COP(=O)(O)O)C(=O)N[C@H](C(=O)N[C@@H](CC(C)C)C(=O)N[C@@H](CC(N)=O)C(=O)N[C@@H](CC(C)C)C(=O)N[C@@H](CCSC)C(=O)N[C@H](C(N)=O)[C@@H](C)O)C(C)C)[C@@H](C)O)C(C)C)[C@@H](C)CC` has a Kd of 31 µM (14-3-3 protein beta/alpha (Homo sapiens, UniProt P31946); binding, ITC; pH 7.4).
The Kd of `CC1(C)C(NC(=O)C(=NOC2(C(=O)O)CC2)c2csc(N)n2)C(=O)N1OS(=O)(=O)O` (stereo not shown) is reported as 0.15 µM (beta-lactamase CMY-6 (Klebsiella pneumoniae); binding, surface plasmon resonance).
With `C=C1NC(=O)c2csc(n2)[C@H]([C@@H](C)O)NC(=O)[C@H](C)NC(=O)[C@H]([C@@H](C)CC)NC(=O)[C@H](CCCNC(=N)N)NC(=O)CNC(=O)[C@H](CCCNC(=N)N)NC(=O)[C@H]([C@@H](C)O)NC(=O)[C@H](CCCNC(=N)N)NC(=O)[C@H]([C@@H](C)CC)NC(=O)[C@H]([C@@H](C)O)NC(=O)[C@H](Cc2c[nH]c3ccccc23)NC(=O)c2ccc(-c3nc(C(=O)OC)cs3)nc2-c2csc1n2` the Kd was 0.00124 µM (TNIK; binding, SPR).

Repeated from above:
`CC[C@H](C)[C@H](NC(=O)[C@H](CO)NC(=O)[C@H](CC(N)=O)NC(C)=O)C(=O)N[C@@H](CCCNC(=N)N)C(=O)N[C@@H](CCCCN)C(=O)N[C@@H](Cc1ccccc1)C(=O)N[C@@H](COP(=O)(O)O)C(=O)N[C@H](C(=O)N[C@H](C(=O)N[C@@H](CCC(N)=O)C(=O)N[C@@H](CCCCN)C(=O)N[C@H](C(=O)N1CCC[C@H]1C(=O)NCC(=O)NCC(=O)NCC(=O)NCC(=O)NCC(=O)N[C@@H](CCC(N)=O)C(=O)N[C@@H](C)C(=O)N[C@@H](CCCNC(=N)N)C(=O)N[C@@H](CCCNC(=N)N)C(=O)N[C@@H](CCCNC(=N)N)C(=O)N[C@@H](CCC(N)=O)C(=O)N[C@@H](COP(=O)(O)O)C(=O)N[C@H](C(=O)N[C@@H](CC(C)C)C(=O)N[C@@H](CC(N)=O)C(=O)N[C@@H](CC(C)C)C(=O)N[C@@H](CCSC)C(=O)N[C@H](C(N)=O)[C@@H](C)O)C(C)C)[C@@H](C)O)C(C)C)[C@@H](C)CC` has a Kd of 31 µM (14-3-3 protein beta/alpha (Homo sapiens, UniProt P31946); binding, ITC; pH 7.4).
The Kd of `CC1(C)C(NC(=O)C(=NOC2(C(=O)O)CC2)c2csc(N)n2)C(=O)N1OS(=O)(=O)O` (stereo not shown) is reported as 0.15 µM (beta-lactamase CMY-6 (Klebsiella pneumoniae); binding, surface plasmon resonance).
